Assay results of several laboratories.
Every numbered part comes from another study and shows a few of its results, in no order. Changes are numbered by the printed parent chain.

Study 1 — partner: H2BC13 (Homo sapiens, UniProt Q99880); technique: cross-linking MS; notes: hits only; quantity: interaction screen
Substance = H2AC6 (Homo sapiens, UniProt Q93077); value = cross-linked
Substance = H2AC21 (Homo sapiens, UniProt Q8IUE6); value = cross-linked
Substance = H2BC21 (Homo sapiens, UniProt Q16778); value = cross-linked
Substance = H2AC11 (Homo sapiens, UniProt P0C0S8); value = cross-linked
Substance = H2BC12L (Homo sapiens, UniProt P57053); value = cross-linked

Further values, each from its own experiment
P1: viral docking peptide; KGVKRKLFAEDSS; partner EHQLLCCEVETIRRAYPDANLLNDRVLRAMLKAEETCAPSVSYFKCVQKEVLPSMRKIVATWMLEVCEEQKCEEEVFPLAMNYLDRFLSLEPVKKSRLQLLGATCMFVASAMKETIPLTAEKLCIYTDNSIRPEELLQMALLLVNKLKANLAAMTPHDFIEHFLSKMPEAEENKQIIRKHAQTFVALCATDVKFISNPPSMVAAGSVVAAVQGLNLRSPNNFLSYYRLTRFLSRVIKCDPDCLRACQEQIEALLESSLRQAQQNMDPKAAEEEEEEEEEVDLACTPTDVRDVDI
P2: PafA, mature enzyme, eGFP fusion (Elizabethkingia meningoseptica, UniProt Q9KJX5); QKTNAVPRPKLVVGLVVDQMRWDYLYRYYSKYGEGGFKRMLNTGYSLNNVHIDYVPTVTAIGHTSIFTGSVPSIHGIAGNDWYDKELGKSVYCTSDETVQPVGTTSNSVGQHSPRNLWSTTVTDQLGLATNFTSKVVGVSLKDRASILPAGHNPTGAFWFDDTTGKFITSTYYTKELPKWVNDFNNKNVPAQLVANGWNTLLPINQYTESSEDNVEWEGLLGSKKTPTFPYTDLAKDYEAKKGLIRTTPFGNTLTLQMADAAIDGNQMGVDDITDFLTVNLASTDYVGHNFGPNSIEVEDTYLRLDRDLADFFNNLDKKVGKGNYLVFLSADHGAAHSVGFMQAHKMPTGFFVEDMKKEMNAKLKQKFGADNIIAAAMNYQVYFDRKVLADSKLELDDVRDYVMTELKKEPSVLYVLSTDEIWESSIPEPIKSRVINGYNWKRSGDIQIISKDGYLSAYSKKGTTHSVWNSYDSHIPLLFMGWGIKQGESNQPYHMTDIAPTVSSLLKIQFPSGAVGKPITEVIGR
Substance = NF1 (Homo sapiens, UniProt P21359); tested on = PTBP1 (Homo sapiens, UniProt P26599); test = cross-linking MS; system = cell fractions; conditions = together with: DSSO; quantity = cross-linked residues; value = K609 to K436
Substance = P1 A9H; tested on = CCND1, cyclin fold, Cln2 fusion (human); test = yeast growth competition, sequencing; system = yeast; conditions = strong parent motif; how to read = relative to: not given, higher = stronger binding; quantity = normalised enrichment score; value = 0.673
Substance = PRPF6 (Homo sapiens, UniProt O94906); tested on = PRPF31 (Homo sapiens, UniProt Q8WWY3); test = cross-linking MS; system = cell fractions; conditions = together with: DSSO; quantity = cross-linked residues; value = K835 to K422
Substance = P2 T247V; tested on = inorganic phosphate, free oxyanion; test = microfluidic competitive inhibition; system = in vitro, cell-free expressed; conditions = not given, derived from inhibition constants, unchanged parent 615000 nM; how to read = lower = stronger binding; quantity = phosphate dissociation constant; value = 605 µM
Substance = KMT2D (Homo sapiens, UniProt O14686); tested on = NDUFV1 (Homo sapiens, UniProt P49821); test = cross-linking MS; system = cell fractions; conditions = together with: DSSO; quantity = cross-linked residues; value = K3563 to K81
Substance = CANX (Homo sapiens, UniProt P27824); tested on = FSIP2 (Homo sapiens, UniProt Q5CZC0); test = cross-linking MS; conditions = hits only; quantity = interaction screen; value = cross-linked

Some of these lines once more (further values, each from its own experiment):
Substance = P2 T247V; tested on = inorganic phosphate, free oxyanion; test = microfluidic competitive inhibition; system = in vitro, cell-free expressed; conditions = not given, derived from inhibition constants, unchanged parent 615000 nM; how to read = lower = stronger binding; quantity = phosphate dissociation constant; value = 605 µM
Substance = KMT2D (Homo sapiens, UniProt O14686); tested on = NDUFV1 (Homo sapiens, UniProt P49821); test = cross-linking MS; system = cell fractions; conditions = together with: DSSO; quantity = cross-linked residues; value = K3563 to K81
